Experimental data gathered from unrelated publications.
Protocols differ between the studies behind these lines. Numbers after ± are the reported error.
Sequence of UniProt P42575 (whole entry, unmodified, looked up): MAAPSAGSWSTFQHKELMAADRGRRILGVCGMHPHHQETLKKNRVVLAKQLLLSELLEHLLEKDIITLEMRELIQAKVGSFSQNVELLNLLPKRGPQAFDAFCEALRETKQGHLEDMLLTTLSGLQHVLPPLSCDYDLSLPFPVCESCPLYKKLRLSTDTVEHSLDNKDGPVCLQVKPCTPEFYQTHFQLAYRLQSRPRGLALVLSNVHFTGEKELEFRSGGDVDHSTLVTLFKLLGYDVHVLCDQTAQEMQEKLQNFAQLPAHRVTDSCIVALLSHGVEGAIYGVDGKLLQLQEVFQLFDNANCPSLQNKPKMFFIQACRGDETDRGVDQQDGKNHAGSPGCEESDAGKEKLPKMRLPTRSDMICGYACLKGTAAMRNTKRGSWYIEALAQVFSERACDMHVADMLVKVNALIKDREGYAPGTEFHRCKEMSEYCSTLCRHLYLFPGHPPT
Sequence of UniProt Q14145 (whole entry, unmodified, looked up): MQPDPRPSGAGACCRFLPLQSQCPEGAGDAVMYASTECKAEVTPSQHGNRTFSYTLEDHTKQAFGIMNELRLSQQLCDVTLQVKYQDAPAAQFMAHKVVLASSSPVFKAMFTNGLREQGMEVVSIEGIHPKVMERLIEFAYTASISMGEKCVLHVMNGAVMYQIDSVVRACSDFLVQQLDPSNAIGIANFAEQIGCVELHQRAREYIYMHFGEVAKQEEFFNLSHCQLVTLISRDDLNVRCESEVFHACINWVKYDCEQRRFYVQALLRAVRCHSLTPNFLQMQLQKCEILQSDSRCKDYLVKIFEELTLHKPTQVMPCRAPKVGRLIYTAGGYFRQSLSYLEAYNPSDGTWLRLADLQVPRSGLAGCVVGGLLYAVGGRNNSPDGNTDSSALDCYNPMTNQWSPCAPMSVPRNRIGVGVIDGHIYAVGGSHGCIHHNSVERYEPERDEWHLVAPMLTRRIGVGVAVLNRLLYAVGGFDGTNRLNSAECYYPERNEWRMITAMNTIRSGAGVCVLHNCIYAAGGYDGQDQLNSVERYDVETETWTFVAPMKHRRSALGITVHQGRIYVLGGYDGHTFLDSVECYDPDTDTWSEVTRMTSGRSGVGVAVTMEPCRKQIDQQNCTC
Sequence of UniProt P22736 (whole entry, looked up): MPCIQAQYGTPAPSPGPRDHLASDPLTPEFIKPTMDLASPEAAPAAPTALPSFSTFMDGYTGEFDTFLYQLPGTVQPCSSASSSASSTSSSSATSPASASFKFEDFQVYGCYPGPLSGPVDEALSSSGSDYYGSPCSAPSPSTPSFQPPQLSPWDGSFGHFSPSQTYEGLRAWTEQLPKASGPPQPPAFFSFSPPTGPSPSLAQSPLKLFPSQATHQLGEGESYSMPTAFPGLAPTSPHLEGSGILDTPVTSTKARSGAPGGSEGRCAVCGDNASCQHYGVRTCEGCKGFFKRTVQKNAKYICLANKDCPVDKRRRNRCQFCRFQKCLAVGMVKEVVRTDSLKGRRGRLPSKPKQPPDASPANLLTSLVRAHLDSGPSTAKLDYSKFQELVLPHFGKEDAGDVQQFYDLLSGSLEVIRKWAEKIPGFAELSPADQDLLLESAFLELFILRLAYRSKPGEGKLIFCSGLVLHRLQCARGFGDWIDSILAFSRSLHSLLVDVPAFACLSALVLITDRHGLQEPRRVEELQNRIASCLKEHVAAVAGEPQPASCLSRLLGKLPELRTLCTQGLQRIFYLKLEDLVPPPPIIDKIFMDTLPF
Sequence of UniProt Q93009 (whole entry, unmodified, looked up): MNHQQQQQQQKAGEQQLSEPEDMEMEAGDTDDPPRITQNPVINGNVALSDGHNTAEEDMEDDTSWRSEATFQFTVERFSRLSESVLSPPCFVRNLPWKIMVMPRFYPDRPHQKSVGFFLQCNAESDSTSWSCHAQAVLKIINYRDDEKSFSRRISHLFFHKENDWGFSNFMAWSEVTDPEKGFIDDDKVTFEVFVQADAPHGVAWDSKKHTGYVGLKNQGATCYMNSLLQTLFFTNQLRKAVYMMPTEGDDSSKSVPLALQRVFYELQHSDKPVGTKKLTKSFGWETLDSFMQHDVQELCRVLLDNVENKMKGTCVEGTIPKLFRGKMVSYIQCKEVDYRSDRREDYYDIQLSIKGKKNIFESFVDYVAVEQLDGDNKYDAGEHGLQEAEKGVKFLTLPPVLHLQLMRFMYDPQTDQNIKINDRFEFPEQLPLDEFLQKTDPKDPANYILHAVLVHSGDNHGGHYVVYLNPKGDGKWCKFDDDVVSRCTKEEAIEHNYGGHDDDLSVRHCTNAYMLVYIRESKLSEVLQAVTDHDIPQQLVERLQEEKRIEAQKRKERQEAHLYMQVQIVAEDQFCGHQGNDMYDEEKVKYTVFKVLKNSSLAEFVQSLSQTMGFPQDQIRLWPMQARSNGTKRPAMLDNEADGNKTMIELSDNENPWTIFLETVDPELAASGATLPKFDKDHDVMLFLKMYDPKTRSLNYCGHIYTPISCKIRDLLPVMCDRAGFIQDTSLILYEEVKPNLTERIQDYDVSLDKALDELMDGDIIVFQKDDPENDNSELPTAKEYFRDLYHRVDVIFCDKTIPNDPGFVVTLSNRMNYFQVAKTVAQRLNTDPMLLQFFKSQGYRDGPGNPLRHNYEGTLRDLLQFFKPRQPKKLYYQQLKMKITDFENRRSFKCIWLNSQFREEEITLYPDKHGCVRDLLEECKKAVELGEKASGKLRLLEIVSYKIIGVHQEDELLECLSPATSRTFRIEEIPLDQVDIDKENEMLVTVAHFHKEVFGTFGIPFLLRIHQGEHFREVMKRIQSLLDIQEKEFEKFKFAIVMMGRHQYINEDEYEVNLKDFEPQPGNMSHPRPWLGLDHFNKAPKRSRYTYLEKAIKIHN
Sequence of UniProt Q04609 (whole entry, looked up): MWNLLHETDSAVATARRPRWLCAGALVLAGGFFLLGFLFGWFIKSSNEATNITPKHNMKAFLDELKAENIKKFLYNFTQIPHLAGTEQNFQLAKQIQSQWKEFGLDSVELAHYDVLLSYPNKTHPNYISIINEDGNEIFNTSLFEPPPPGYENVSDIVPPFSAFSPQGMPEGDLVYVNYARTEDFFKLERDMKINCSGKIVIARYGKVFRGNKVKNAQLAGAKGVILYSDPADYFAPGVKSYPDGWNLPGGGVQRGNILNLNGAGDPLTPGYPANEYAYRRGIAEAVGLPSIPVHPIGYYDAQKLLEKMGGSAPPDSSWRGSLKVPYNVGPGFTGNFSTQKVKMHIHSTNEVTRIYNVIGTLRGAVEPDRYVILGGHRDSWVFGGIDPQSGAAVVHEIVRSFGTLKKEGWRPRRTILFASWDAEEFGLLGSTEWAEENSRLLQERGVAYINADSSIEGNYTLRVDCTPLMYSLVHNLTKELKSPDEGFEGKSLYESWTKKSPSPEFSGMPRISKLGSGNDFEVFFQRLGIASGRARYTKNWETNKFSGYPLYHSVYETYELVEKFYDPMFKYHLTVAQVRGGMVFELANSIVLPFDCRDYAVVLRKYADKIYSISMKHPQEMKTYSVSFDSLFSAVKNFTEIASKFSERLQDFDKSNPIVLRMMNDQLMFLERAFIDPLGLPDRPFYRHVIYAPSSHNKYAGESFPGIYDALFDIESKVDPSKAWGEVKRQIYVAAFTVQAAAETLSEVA
Sequence of UniProt Q08460 (whole entry, looked up): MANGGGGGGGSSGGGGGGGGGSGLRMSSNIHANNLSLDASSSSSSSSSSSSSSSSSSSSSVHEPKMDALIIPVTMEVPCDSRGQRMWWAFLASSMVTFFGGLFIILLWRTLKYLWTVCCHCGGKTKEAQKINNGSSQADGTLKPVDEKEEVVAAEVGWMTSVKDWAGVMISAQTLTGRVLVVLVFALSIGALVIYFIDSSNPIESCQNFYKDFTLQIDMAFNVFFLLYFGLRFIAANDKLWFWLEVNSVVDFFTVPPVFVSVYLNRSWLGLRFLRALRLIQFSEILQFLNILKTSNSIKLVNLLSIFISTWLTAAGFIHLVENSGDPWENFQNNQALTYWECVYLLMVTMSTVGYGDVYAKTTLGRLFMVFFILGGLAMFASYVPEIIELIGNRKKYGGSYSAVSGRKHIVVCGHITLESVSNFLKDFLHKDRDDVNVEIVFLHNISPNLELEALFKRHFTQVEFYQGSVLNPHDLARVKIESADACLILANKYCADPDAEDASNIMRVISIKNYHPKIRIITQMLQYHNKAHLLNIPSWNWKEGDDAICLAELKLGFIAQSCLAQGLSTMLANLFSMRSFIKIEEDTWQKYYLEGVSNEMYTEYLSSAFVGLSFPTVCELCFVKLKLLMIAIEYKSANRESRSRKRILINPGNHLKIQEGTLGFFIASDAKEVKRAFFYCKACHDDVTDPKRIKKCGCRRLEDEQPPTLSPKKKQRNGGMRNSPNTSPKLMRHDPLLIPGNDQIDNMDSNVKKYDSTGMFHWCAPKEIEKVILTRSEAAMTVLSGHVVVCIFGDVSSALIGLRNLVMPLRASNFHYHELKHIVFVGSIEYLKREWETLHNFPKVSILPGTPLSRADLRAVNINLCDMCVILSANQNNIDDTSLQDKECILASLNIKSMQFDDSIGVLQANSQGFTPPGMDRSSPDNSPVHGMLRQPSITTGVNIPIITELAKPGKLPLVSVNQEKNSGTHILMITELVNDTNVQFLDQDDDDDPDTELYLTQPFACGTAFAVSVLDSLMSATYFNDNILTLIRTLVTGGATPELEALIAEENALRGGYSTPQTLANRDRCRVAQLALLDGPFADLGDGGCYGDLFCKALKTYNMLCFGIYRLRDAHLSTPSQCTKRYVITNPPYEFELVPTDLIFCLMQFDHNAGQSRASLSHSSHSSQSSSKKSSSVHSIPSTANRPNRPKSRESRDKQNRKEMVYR

For `CC(=O)N[C@@H](CO)C(=O)N[C@@H](C)C(=O)N[C@@H](CCCCN)C(=O)N[C@@H](C)C(=O)N[C@@H](C)C(=O)N[C@@H](CC(=O)O)C(=O)N[C@@H](CC(=O)O)C(=O)N1CCC[C@H]1C(=O)N[C@@H](CCC(=O)O)C(=O)N[C@@H](CC(N)=O)C(=O)NCC(=O)N[C@@H](CCC(=O)O)C(=O)N[C@@H](CCCNC(=N)N)C(=O)N[C@@H](CCC(=O)O)C(=O)N[C@@H](CO)C(=O)N[C@@H](Cc1c[nH]cn1)C(=O)N[C@H](C(=O)N1CCC[C@H]1C(=O)N[C@H](C(=O)N[C@@H](CO)C(N)=O)C(C)C)[C@@H](C)O`, the ΔG was -8.13 ± 0.04 kcal/mol (Kelch-like ECH-associated protein 1, Kelch domain (KEAP1, Homo sapiens, UniProt Q14145); isothermal titration calorimetry; Kelch domain; pH 7, 298.15 K).
`O=C([O-])CN1CCN(CC(=O)[O-])CCN(C(CCC(=O)NCCCCCN(CCCC[C@H](NC(=O)N[C@@H](CCC(=O)O)C(=O)O)C(=O)O)C(=O)c2ccc(I)cc2)C(=O)O)CCN(CC(=O)[O-])CC1.[68Ga+3]` (stereo partly shown) — result for “tumour-to-normal tissue ratio”: 1.11 ± 0.95 (FOLH1 (Homo sapiens, UniProt Q04609); PET/CT; prostate cancer patients, primary prostate cancer lesions; baseline: primary lesions over kidneys).
With `O[C@@H]1[C@@H](O)[C@H](O[C@@H]2OC[C@@H](O)[C@H](O)[C@H]2O)C[C@H]2O[C@@H]12` the kinact was 0.197 s⁻¹ (endo-1,4-beta-xylanase (Aspergillus aculeatus, UniProt A0A1L9WG58); covalent inhibitor; pH 5.0, with: 4MU-β-D-xylobioside).
`CC1=C(O)C(=O)C=C2C1=CC=C1[C@@]2(C)CC[C@@]2(C)[C@@H]3C[C@](C)(C(=O)NCCOCCOCCOCCOCC(=O)N[C@H](C(=O)N4C[C@H](O)C[C@H]4C(=O)N[C@@H](C)c4ccc(-c5scnc5C)cc4)C(C)(C)C)CC[C@]3(C)CC[C@]12C` — result for “time window of efficient degradation”: 8 to 48 h (Nuclear receptor subfamily 4 group A member 1 (NR4A1, Homo sapiens, UniProt P22736); degrader, immunoblotting; CHL-1; 500 nM).
`CSCC[C@H](NC(C)=O)C(=O)NCC(=O)NCC(=O)N[C@@H](CCC(=O)O)C(=O)N[C@@H](CC(C)C)C(=O)N[C@H](C(=O)N[C@H](C(=O)NCC(=O)N[C@@H](CC(C)C)C(=O)NCC(=O)N[C@@H](C)C(=O)N[C@@H](CC(C)C)C(=O)N[C@@H](CCCNC(=N)N)C(=O)N[C@@H](CCCNC(=N)N)C(=O)N[C@@H](CCCNC(=N)N)C(=O)N[C@@H](CCCCN)C(=O)N[C@@H](CCCNC(=N)N)C(=O)N[C@@H](CC(C)C)C(=O)N[C@@H](CC(C)C)C(=O)N[C@@H](CCC(=O)O)C(=O)N[C@@H](CCC(N)=O)C(=O)N[C@@H](CCC(=O)O)C(=O)N[C@@H](CCCCN)C(=O)N[C@@H](CCCNC(=N)N)C(N)=O)[C@@H](C)O)C(C)C`: “block time constant” 28 ms (Kcnma1 (Mus musculus, UniProt Q08460); ion current, blocker, whole-cell patch clamp; 250 µM, +50 mV after DCEBIO washout).
`CC(=O)N[C@@H](Cc1c[nH]c2ccccc12)C(=O)N[C@@H](CC(=O)O)C(=O)N[C@@H](CCCNC(=N)N)C(=O)N[C@@H](C)C(=O)N[C@H](C=O)CC(=O)O` has a Ki of 45.7 nM (Caspase-2 (Homo sapiens, UniProt P42575); enzyme activity, inhibitor, fluorescence; pH 6.5).
For `C[C@H](N)C(=O)N[C@@H](CCCNC(=N)N)C(=O)N[C@H](C(=O)N[C@@H](CCCC[N+](C)(C)C)C(=O)N[C@@H](CCC(N)=O)C(=O)N[C@H](C(=O)N[C@@H](C)C(=O)N[C@@H](CCCNC(=N)N)C(=O)N[C@@H](CCCCN)C(=O)N[C@@H](CO)C(=O)N[C@H](C(=O)NCC(=O)NCC(=O)N[C@@H](CCCCN)C(=O)N[C@@H](C)C(=O)N[C@@H](Cc1ccc(O)cc1)C(=O)O)[C@@H](C)O)[C@@H](C)O)[C@@H](C)O`, “Kd fold increase” read ~1.7 fold (Histone-lysine N-methyltransferase 2A, PHD3 finger (KMT2A, Homo sapiens, UniProt Q03164, V1617A); isothermal titration calorimetry; baseline: wild-type PHD3).
With `CC(=O)N[C@@H](CC(C)C)C(=O)N[C@@H](CC(=O)O)C(=O)N[C@H](C(=O)N1CCC[C@H]1C(=O)N[C@H](C=O)CC(=O)O)C(C)C` the Ki was 21.9 nM (Caspase-2, circularly permuted (Homo sapiens, UniProt P42575); enzyme activity, inhibitor; pH 6.5, 37 °C, with: Z-VDVAD-AFC).
For `CC12CC(c3ccc(C(=O)CO)cc3)C3=C4CCC(=O)C=C4CCC3C1CCC2(O)C(F)(F)C(F)(F)F` (stereo not shown), “full efficacy dose” read 3 mg/kg (Progesterone receptor (Oryctolagus cuniculus, UniProt P06186); endometrial transformation, McPhail test; rabbit; oral, with: progesterone).
`Cc1cc(Cl)cc(-c2ccnc3cc(CN4C(=O)C5C(C4=O)C5(C)C)sc23)c1C[C@@H]1CNCCO1` (stereo partly shown) gave a Kd ratio of 57 fold (USP7 (Homo sapiens, UniProt Q93009, V517F); isothermal titration calorimetry; baseline: V517F over wild type).

Some of these lines once more:
For `C[C@H](N)C(=O)N[C@@H](CCCNC(=N)N)C(=O)N[C@H](C(=O)N[C@@H](CCCC[N+](C)(C)C)C(=O)N[C@@H](CCC(N)=O)C(=O)N[C@H](C(=O)N[C@@H](C)C(=O)N[C@@H](CCCNC(=N)N)C(=O)N[C@@H](CCCCN)C(=O)N[C@@H](CO)C(=O)N[C@H](C(=O)NCC(=O)NCC(=O)N[C@@H](CCCCN)C(=O)N[C@@H](C)C(=O)N[C@@H](Cc1ccc(O)cc1)C(=O)O)[C@@H](C)O)[C@@H](C)O)[C@@H](C)O`, “Kd fold increase” read ~1.7 fold (Histone-lysine N-methyltransferase 2A, PHD3 finger (KMT2A, Homo sapiens, UniProt Q03164, V1617A); isothermal titration calorimetry; baseline: wild-type PHD3).
